{"data": "Measured values collected from several papers", "note": "Every numbered part comes from another study and shows a few of its results, in no order."}
{"data": "Set 1", "target": "Prothrombin, mature alpha-thrombin (F2, Homo sapiens, UniProt P00734)", "technique": "aptamer microarray, sandwich", "form": "DNA with 2'F-ANA", "matrix": "in vitro", "concentration": "200 nM", "notes": "whole 15-mer aptamer, many near background", "together with": "Cy3 exosite-II aptamer, 400 nM", "reading": "higher = stronger binding"}
{"Oligonucleotide": "GGTTGGTGTGGTTGG (2'F-ANA at 3 7 8 10 11 13 14 15)", "mean fluorescence intensity": "554 a.u."}
{"Oligonucleotide": "GGTTGGTGTGGTTGG (2'F-ANA at 5 9 10 11 13)", "mean fluorescence intensity": "50.1 a.u."}
{"Oligonucleotide": "GGTTGGTGTGGTTGG (2'F-ANA at 2 4 5 8 9 12 15)", "mean fluorescence intensity": "156 a.u."}
{"Oligonucleotide": "GGTTGGTGTGGTTGG (2'F-ANA at 1 3 4 8 9 10 11)", "mean fluorescence intensity": "61.9 a.u."}
{"data": "Set 2", "target": "Interferon regulatory factor 7, full length, phosphomimetic (IRF7, Homo sapiens, UniProt Q92985, residues 1-503, S471D/S472D/S475D/S476D/S477D/S483D/S484D/S487D)", "technique": "protein-binding microarray", "form": "double-stranded DNA, one strand shown", "matrix": "in vitro", "concentration": "2200 nM top", "notes": "60-bp whole probe", "together with": "salmon DNA 0.4 mg/ml", "reference": "random background probes", "reading": "higher = stronger binding", "shared flanks, not repeated": "GCCTAGCAC … GTCTTGATTCGCTTGACGCTGCTG", "Construct (chain)": "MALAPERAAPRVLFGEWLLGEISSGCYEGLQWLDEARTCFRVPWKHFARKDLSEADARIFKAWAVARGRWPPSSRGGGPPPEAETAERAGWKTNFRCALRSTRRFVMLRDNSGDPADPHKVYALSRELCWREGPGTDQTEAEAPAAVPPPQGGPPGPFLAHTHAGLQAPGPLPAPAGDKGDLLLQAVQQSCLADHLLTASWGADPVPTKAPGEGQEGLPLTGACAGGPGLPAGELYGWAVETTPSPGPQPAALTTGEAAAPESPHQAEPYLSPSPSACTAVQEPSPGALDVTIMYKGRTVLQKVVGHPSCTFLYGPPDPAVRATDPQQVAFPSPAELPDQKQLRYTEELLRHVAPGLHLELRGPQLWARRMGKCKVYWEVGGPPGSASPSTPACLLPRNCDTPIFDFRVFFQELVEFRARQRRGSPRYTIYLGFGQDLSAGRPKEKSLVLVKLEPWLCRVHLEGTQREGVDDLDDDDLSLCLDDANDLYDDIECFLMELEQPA"}
{"Oligonucleotide": "TCAAGTTTACCCATCTCCAGGTGCTAG", "fitted relative affinity [z-score]": 0.687}
{"Oligonucleotide": "TTAAGTATCCTTTTCCTTTAGTGCTAG", "fitted relative affinity [z-score]": 1.78}
{"Oligonucleotide": "TCATAATTCACTATTACACTGTGCTAG", "fitted relative affinity [z-score]": 0.913}
{"Oligonucleotide": "TCAGGCTTAGTTTGTCAAACTGTGCTA", "fitted relative affinity [z-score]": -0.44}
{"Oligonucleotide": "GAAGGTTTCGGTTCCGGGACGTGCTAG", "fitted relative affinity [z-score]": 10.8}
{"data": "Set 3", "target": "Histone acetyltransferase KAT6A, winged helix 2, GST fusion (KAT6A, Homo sapiens, UniProt Q92794, residues 85-181)", "technique": "protein binding microarray", "form": "double-stranded DNA, one strand shown", "matrix": "in vitro", "concentration": "not given", "notes": "8-mer, flanks averaged, mean of 2 arrays, mostly near background", "reference": "not given", "reading": "higher = stronger binding", "Target sequence (chain)": "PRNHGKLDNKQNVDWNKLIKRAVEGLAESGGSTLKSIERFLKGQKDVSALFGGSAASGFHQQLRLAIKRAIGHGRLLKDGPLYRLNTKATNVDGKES"}
{"Oligonucleotide": "CACTACTG", "E-score": -0.139}
{"Oligonucleotide": "GAAAAGTA", "E-score": -0.11}
{"Oligonucleotide": "TCCAGCCA", "E-score": -0.0893}
{"Oligonucleotide": "ATCTACCC", "E-score": -0.0578}
{"Oligonucleotide": "AGTGATAA", "E-score": -0.204}
{"Oligonucleotide": "CCAAGCAC", "E-score": -0.00717}
{"Oligonucleotide": "AGGTGCAC", "E-score": -0.111}
{"data": "Mixed results"}
{"Molecule": "PhoQ, residues 284 288 289 292 302 303 TLSLKA", "target": "PhoP, residues 12 14 15 18 19 SEGLL (Escherichia coli, UniProt P23836)", "assay": "Sort-seq, item: YFP reporter", "test system": "E. coli", "conditions": "PhoQ-PhoP variant library, together with: 10 µM Mg2+", "scale": "reference: high Mg2+ state, higher = stronger signaling", "quantity": "fold induction", "value": 1.51}
{"note": "Excerpt of the above (set 2):"}
{"Oligonucleotide": "TCAGGCTTAGTTTGTCAAACTGTGCTA", "fitted relative affinity [z-score]": -0.44}
{"Oligonucleotide": "TTAAGTATCCTTTTCCTTTAGTGCTAG", "fitted relative affinity [z-score]": 1.78}
